Measured values collected from several papers.
A part holds a random share of what one study measured.

Series 1
Target: Prothrombin, mature alpha-thrombin (F2, Homo sapiens, UniProt P00734)
Method: aptamer microarray, sandwich
Molecule type: DNA with 2'F-ANA
Matrix: in vitro
Concentration: 200 nM
Notes: whole 15-mer aptamer, many near background
Added: Cy3 exosite-II aptamer, 400 nM
Reading: higher = stronger binding
Strand: GGTTGGTGTGGTTGG
Modification | mean fluorescence intensity [a.u.]
2'F-ANA at 1 4 5 7 10 12 | 68.8
2'F-ANA at 1 4 7 10 11 12 13 14 | 49.1
2'F-ANA at 1 2 5 6 7 8 9 11 12 14 | 52.2
2'F-ANA at 1 2 5 6 9 10 13 14 15 | 71.5
2'F-ANA at 1 3 5 6 8 9 10 14 | 47.1
2'F-ANA at 3 4 5 11 12 14 15 | 54.7
2'F-ANA at 1 3 4 7 9 10 13 14 | 56.4
2'F-ANA at 1 2 3 4 5 6 7 8 10 11 12 | 55.4
2'F-ANA at 3 5 7 8 11 14 15 | 59.8

Series 2
Target: Sal-like protein 4, full length isoform A (SALL4, Homo sapiens, UniProt Q9UJQ4, residues 1-1053)
Chain of UniProt Q9UJQ4 (whole entry, looked up): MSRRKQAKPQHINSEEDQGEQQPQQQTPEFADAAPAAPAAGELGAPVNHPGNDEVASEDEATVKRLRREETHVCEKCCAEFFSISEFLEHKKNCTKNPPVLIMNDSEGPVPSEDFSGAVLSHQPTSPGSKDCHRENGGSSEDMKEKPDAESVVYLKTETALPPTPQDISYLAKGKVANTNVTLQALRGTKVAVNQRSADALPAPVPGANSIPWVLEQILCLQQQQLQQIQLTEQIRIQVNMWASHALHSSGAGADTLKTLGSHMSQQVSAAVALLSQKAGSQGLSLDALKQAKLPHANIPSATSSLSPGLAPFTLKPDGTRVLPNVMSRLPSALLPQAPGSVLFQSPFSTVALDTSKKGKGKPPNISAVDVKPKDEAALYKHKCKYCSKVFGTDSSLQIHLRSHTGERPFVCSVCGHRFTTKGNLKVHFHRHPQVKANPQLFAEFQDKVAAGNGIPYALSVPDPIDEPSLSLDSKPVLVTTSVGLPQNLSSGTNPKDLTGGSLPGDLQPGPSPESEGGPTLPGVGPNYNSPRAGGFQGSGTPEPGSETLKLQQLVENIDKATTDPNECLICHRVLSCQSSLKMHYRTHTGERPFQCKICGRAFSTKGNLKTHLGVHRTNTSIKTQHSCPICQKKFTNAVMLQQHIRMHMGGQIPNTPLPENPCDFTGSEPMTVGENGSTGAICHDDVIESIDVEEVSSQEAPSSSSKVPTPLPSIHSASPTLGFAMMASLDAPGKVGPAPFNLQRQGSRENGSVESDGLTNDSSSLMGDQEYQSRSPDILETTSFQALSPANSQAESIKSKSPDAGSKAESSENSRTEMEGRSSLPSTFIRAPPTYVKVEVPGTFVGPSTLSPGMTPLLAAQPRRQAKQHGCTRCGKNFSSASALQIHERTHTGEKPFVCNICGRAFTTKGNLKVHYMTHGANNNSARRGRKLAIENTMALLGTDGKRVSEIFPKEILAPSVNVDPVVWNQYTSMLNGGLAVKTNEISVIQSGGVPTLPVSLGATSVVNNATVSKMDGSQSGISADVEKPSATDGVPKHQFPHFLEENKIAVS
Method: universal PBM
Molecule type: double-stranded DNA, one strand shown
Matrix: in vitro
Concentration: 600 nM
Notes: 8-mer, flanks averaged, mean of replicates
Reading: higher = stronger binding
Strand | E-score
ACATGCAA | 0.11
AGCTCTGC | -0.292
CCCAGGGG | -0.408
GCACCAAC | -0.28
CAGAGGGA | -0.287
ACGGCTCC | -0.187
ATGTCCAG | -0.127
CATTGGTA | 0.0857
CTGACTTA | 0.192

Series 3
Target: UBE2J2 UBC core domain (UniProt Q8N2K1)
Method: yeast two-hybrid
Matrix: yeast
Notes: mostly zero background
Relative to: not given
Reading: higher = stronger interaction
B1: TRIM41 RING domain (UniProt Q8WV44); chain PVQTLQEEAVCAICLDYFTDPVSIGCGHNFCRVCVTQLWGGEDEEDRDELDREEEEEDGEEE
B2: TRIM11 RING domain (UniProt Q96F44); chain LSTNLQEEATCAICLDYFTDPVMTDCGHNFCRECIRRCWGQPEGPYACPECRELSPQRNLRP
B3: RNF103 RING domain (UniProt O00237); chain WPADMLHCTECVVCLENFENGCLLMGLPCGHVFHQNCIVMWLAGGRHCCPVCRWPSYKKKQPY
B4: RNF6 RING domain (UniProt Q9Y252); chain NSIDSELGKICSVCISDYVTGNKLRQLPCMHEFHIHCIDRWLSENCTCPICRQPVLGSNIAN
B5: ZMYND11 RING domain (UniProt Q15326); chain DEIDWETENHDWYCFECHLPGEVLICDLCFRVYHSKCLSDEFRLRDSSSPWQCPVCRSIKKKNTNKQEM
Residues (chain): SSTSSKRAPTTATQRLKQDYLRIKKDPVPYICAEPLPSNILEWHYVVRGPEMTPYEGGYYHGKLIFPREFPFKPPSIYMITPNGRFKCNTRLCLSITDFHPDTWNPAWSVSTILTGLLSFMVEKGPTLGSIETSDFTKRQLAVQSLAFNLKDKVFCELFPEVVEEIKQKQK
Molecule | lacZ reporter activity
B1 (TRIM41 RING domain) | 0
B2 (TRIM11 RING domain) | 0
B3 (RNF103 RING domain) | 9890
LEALSSDFLACKICLEQLRAPKTLPCLHTYCQDCLAQLADGGRVRCPECRETVPVPPEGV (TRIM56 RING domain (UniProt Q9BRZ2)) | 0
DDVLTKDAGECVICLEELLQGDTIARLPCLCIYHKSCIDSWFEVNRSCPEHPAD (ZNRF1 RING domain (UniProt Q8ND25)) | 0
B4 (RNF6 RING domain) | 0
B5 (ZMYND11 RING domain) | 0

Series 4
Target: Interferon regulatory factor 7, full length, phosphomimetic (IRF7, Homo sapiens, UniProt Q92985, residues 1-503, S471D/S472D/S475D/S476D/S477D/S483D/S484D/S487D)
Method: protein-binding microarray
Molecule type: double-stranded DNA, one strand shown
Matrix: in vitro
Concentration: 2200 nM top
Notes: 60-bp whole probe
Added: salmon DNA 0.4 mg/ml
Relative to: random background probes
Reading: higher = stronger binding
Constant ends, left off below: GCCTAGCAC … GTCTTGATTCGCTTGACGCTGCTG
Construct (chain): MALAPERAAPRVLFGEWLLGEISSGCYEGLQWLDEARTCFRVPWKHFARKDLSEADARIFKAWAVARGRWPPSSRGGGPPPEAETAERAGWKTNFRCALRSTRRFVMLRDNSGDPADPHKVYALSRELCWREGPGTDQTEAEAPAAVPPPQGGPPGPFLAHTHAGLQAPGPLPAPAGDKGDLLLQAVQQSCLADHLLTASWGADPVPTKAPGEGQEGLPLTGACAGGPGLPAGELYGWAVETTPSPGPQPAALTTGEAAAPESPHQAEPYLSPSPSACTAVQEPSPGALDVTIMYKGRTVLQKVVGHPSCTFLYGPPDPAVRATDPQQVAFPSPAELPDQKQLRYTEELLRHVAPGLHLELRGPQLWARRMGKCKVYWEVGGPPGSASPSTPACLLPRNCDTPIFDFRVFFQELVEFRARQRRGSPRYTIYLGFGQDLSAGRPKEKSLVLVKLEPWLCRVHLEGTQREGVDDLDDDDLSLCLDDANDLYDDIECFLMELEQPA
Strand | fitted relative affinity [z-score]
GGGAAAATGGCTTTGCAGATGTGCTAG | -0.594
GTAGATTTCGGGACTGGATTAGTGCTA | 1.18
TCATTTTTTTAATTGAGACTGTGCTAG | 0.558
TTAGATCTCAGTTTCGACTAGTGCTAG | 3.05
TTAGAACTGAGGACTGGATTAGTGCTA | -0.936
TCGTTTCCCAAGTTTATACCTGTGCTA | 4.42
TTAGGACTGGACACTGGTTTAGTGCTA | -0.467
TTATGTATCGGTTTCGGTTAGTGCTAG | 7.32
TTAGAACTAGGGTTTCGATTAGTGCTA | 1.33
TCACTTATCCCTAATCTCACTGTGCTA | 1.85
GACGGTCTCGTTATCCTGACGTGCTAG | 1.1
TTAGAACCGGGGTATCGATTAGTGCTA | -0.152
GACGGTTTCGGTTCCGGGAGGTGCTAG | 11.4
TTAGAACTGGGGTAACGATTAGTGCTA | -0.447
GACGATTTCAGTTTCGAGCCGTGCTAG | 4.55
TTAGGGATCGACACTGGGTTAGTGCTA | -0.578
TCATATATGTATATATGACTGTGCTAG | 0.917
TCATTTTGGTCTTTCTGACTGTGCTAG | 2.45
TGTCCTTTCACTTTAACTTAGTGCTAG | 5.37
GACGGATTGGGGTATCGGGACGTGCTA | -0.122

A few entries again (series 2):
Strand | E-score
ATGTCCAG | -0.127
CATTGGTA | 0.0857
CTGACTTA | 0.192
